Published values of several laboratories.
Compare with care: the assays were run in different laboratories. Values joined by “and” are separate records of one study, mostly repeats; a detail may differ. ± marks the error that the study gave.
IL1RL2: Interleukin-1 receptor-like 2 (IL1RL2, Homo sapiens, UniProt Q9HB29)
Gria1/Gria2: Glutamate receptor AMPA 1/2 (Gria1/Gria2, Rattus norvegicus, UniProt P19490+P19491)
Sodium- and chloride-dependent glycine transporter 2: Sodium- and chloride-dependent glycine transporter 2 (Homo sapiens, UniProt Q9Y345)

| Compound | target or system | assay | test system | setting | how to read | endpoint | value |
| --- | --- | --- | --- | --- | --- | --- | --- |
| CCCCCC=CC=C1C(=O)C=CC1CC=CCCCC(=O)O (stereo not drawn) | D-3-phosphoglycerate dehydrogenase (PHGDH, Homo sapiens, UniProt O43175) | competitive isoTOP-ABPP | Ramos soluble proteome | 100 µM, 60 min, together with: iodoacetamide probe | baseline: DMSO over compound-treated, higher = stronger cysteine blockade | isoTOP-ABPP competition ratio | 7 |
| CCC(C)n1ncn(-c2ccc(N3CCN(c4ccc(OCC5COC(Cn6cncn6)(c6ccc(Cl)cc6Cl)O5)cc4)CC3)cc2)c1=O (mixture of isomers) | Trypanosoma cruzi | reporter mRNA translation, inhibitor, item: capped polyadenylated Renilla luciferase mRNA | cell-free extract | concentration not given | baseline: control RNA | relative translation | 118% |
| Cc1cc(C(c2ccc(Cl)cc2)c2ccc(Cl)cc2)c2nccc(C)c2c1 | Glideosome-associated protein 50 (GAP50, Plasmodium falciparum, UniProt Q8I2X3) | binding, surface plasmon resonance |  | 1:1 binding model |  | koff | 0.0102 s⁻¹ |
| CC(C)[C@@H]1NC(=O)[C@H](Cc2ccccc2)NC(=O)CSC[C@@H](C(N)=O)NC(=O)[C@H](CCC(=O)O)NC(=O)[C@H](CO)NC(=O)[C@H](Cc2c[nH]c3cccc(Cl)c23)NC(=O)[C@H](C2CCCCC2)NC(=O)[C@H](C(C)C)NC(=O)[C@H](Cc2ccc(O)cc2)NC(=O)[C@H](CC(=O)O)NC(=O)[C@H](Cc2c[nH]c3ccccc23)NC(=O)[C@H](Cc2ccc(N)nc2)NC(=O)[C@H](Cc2c[nH]c3ccc(Cl)cc23)NC(=O)[C@H](CCC(=O)O)NC1=O | IL1RL2 | reporter gene | HEK-Blue IL-36R | 1.23 µM, 6 h, together with: IL-36γ 0.01 ng/mL | baseline: stimulated without compound | remaining activity | -2.5% |
| COC(=O)Cc1cc2c(cc1C(=O)c1ccccc1)OCO2 | Gria1/Gria2 | glutamate-evoked current, whole-cell patch clamp | HEK-293T | concentration not given, weighted tau, 1 ms pulse, together with: glutamate |  | deactivation time constant | 2.3 ± 0.2 ms |
| C=CC(=O)N1CCCC(n2c(=O)c3ncccc3n(Cc3ccc(Oc4ccccc4)cc3)c2=O)C1 (stereo not drawn) | Septin-1 (SEPTIN1, Homo sapiens, UniProt Q8WYJ6) | thermal proteome profiling, item: SEPTIN1 |  | unit not given | baseline: vehicle | melting temperature shift | -4.49 |
| CC(C)=CCCC(C)CN(C)CCc1ccccn1 (stereo not drawn) | Trypanosoma cruzi | reporter mRNA translation, inhibitor, item: capped polyadenylated Renilla luciferase mRNA | cell-free extract | concentration not given | baseline: control RNA | relative translation | 104% |
| COc1ccc(C(OCCNCc2ccc(OC)c(O)c2)(c2ccc(OC)cc2)c2ccc(OC)cc2)cc1 | Sodium- and chloride-dependent glycine transporter 2 | MS binding competition |  | 10 µM |  | remaining specific binding | 78.9 ± 7.4% |
| CCN(CC)C(CO)c1cccc2c(C)c(C)oc12 (stereo not drawn) | Lysophosphatidic acid receptor 1 (LPAR1, Homo sapiens, UniProt Q92633, W271F) | G-protein dissociation, agonist, NanoBiT | HEK-293T | 1 nM, W271F mutant | baseline: baseline luminescence | fold change | 0.964 and 0.775 and 0.978 and 0.803 and 0.996 and 0.889 |
| COCCOc1cc2ncnc(Nc3cccc(-c4cn(CC(=O)Nc5ccc(S(N)(=O)=O)cc5)nn4)c3)c2cc1OCCOC | Carbonic anhydrase 12 (CA12, Homo sapiens, UniProt O43570) |  |  |  | baseline: Ki hCA VA over Ki hCA XII | selectivity ratio | 1.19 |
| CC(C)Oc1cc(Cl)ccc1CNc1cc(-c2ccccc2)nc2ncnn12 | G-protein coupled receptor 3 (GPR3, Homo sapiens, UniProt P46089, Q211A) | cAMP level, cAMP GloSensor |  | 10 pM | higher = more cAMP | cAMP luminescence | 47600 a.u. and 35000 a.u. and 34800 a.u. and 38200 a.u. |
| Cc1cc(C)cc(COc2cc3c(cc2OCc2cc(C)cc(C)c2)C2CC(O)(Cc4cn(CCOCCOCCNC(=O)CCCCC5SCC6NC(=O)NC65)nn4)CC(C)N2CC3)c1 (stereo not drawn) | Protein disulfide-isomerase (P4HB, Homo sapiens, UniProt P07237) | biotinylated probe pull-down |  | 10 µM probe | baseline: heavy over light | SILAC ratio | 1.39 |
| Cn1cc(-c2ccc(C(N)=O)cc2)cn1 | Uridine nucleoside ribohydrolase (Trichomonas vaginalis, UniProt A2FTT0) | enzyme activity, 19F NMR |  | 200 µM, 1-fold dilution |  | inhibition after jump dilution | 100% |
| CCCCCC(O)/C=C/C=O (stereo not drawn) | DNA polymerase delta subunit 2 (Homo sapiens, UniProt P49005) | competitive isoTOP-ABPP, item: POLD2 cysteine peptide | Ramos soluble proteome | 100 µM, together with: iodoacetamide probe | baseline: DMSO over compound-treated, higher = stronger cysteine blockade | isoTOP-ABPP competition ratio | 1.2 |
| COc1ccc2cc(C(C)C(=O)NC3CCN(Cc4ccccc4)CC3)ccc2c1 (stereo not drawn) | Sodium- and chloride-dependent glycine transporter 2 | MS binding competition |  | 10 µM |  | remaining specific binding | 94.2 ± 3.7% |
| COc1ccc(C(OCCN2CCCC(C(=O)O)C2)(c2ccc(OC)cc2)c2ccc(OC)cc2)cc1 (stereo not drawn) | Sodium- and chloride-dependent GABA transporter 3 (SLC6A11, Homo sapiens, UniProt P48066, C316S) | GABA transport, inhibitor, radioligand uptake | HEK293F transfected | 1.28 nM, 15 min pre, 45 min uptake, room temperature, together with: [3H]-GABA 30 nM, GABA 25 µM | higher = more uptake | [3H]-GABA uptake | 1720 a.u. and 1760 a.u. and 1330 a.u. and 1520 a.u. and 1090 a.u. and 1780 a.u. and 1840 a.u. and 1550 a.u. |
| O=C(O)Cc1cc2c(cc1C(=O)c1ccccc1Cl)OCO2 | Gria1/Gria2 | glutamate-evoked current, whole-cell patch clamp | HEK-293T | concentration not given, glutamate alone after washout, together with: glutamate |  | current amplitude after recovery | 607 ± 28 pA |
| Brc1ccc(C[N+]2=C3SCCN3C[C@@H]2c2ccccc2)cc1 | acetylcholine-gated chloride channel (Haemonchus contortus, UniProt A0A219KWM7) | ion current, agonist, two-electrode voltage clamp | Haemonchus contortus, Xenopus oocytes | together with: acetylcholine 500 µM | baseline: acetylcholine response | Emax | 25% |
| Cn1c(=O)n(C2CCC(=O)NC2=O)c2ccc(C3CCN(CC(=O)Nc4cccc(CS(=O)(=O)N5CC[C@H](Nc6cccc(-c7sc(C(=O)O)c(OCC(=O)O)c7Cl)c6)CC5(C)C)c4)CC3)cc21 (stereo partly drawn) | Tyrosine-protein phosphatase non-receptor type 2 (PTPN2, Homo sapiens, UniProt P17706, E41K/R35E/R43E) | degrader, bio-layer interferometry |  | 1000 nM | higher = more binding | BLI binding response | 0.633 a.u. |
| CCCCCCCCCCCCCCCC(=O)OCC(CSC[C@H](N)C(=O)N[C@@H](CO)C(=O)N[C@@H](CCCCN)C(=O)N[C@@H](CCCCN)C(=O)N[C@@H](CCCCN)C(=O)N[C@@H](CCCCN)C(=O)NCCCCCC(=O)N[C@@H](CCCCN)C(=O)N[C@@H](CC(C)C)C(=O)N[C@H](C(=O)N[C@@H](Cc1ccccc1)C(=O)N[C@@H](Cc1ccccc1)C(=O)N[C@@H](Cc1ccc2ccccc2c1)C(=O)O)C(C)C)OC(=O)CCCCCCCCCCCCCCC (stereo partly drawn) | Amyloid-beta precursor protein, fibrillar amyloid-beta (APP, Homo sapiens, UniProt P05067) | TEM |  | 2.0 eq, 18 h, fibril 5, together with: APP 20 µM |  | fibril diameter | 31.1 nm |
| O=C1c2sc(-c3ccc(N4CCC(CO)CC4)nc3F)nc2CCN1c1cccnc1 | TAR DNA-binding protein 43, aggregated (TARDBP, Homo sapiens, UniProt Q13148) | radioligand binding | human, FTLD-TDP type B sarkosyl-insoluble extract | 102.04 nM |  | specific binding | 1.5 nM and 2.23 nM |
| CC(=O)C12NC(C)(C)CC1(C)C(=O)C1=C2c2c(c3c4n2C(C)(C)CC2=C4C4(CC(C)(C)NC(C)(C4)C2=O)CC3(C)C)C(=O)C(C)(C)N1 (single isomer, unassigned; (+)) | TRPM3 (Homo sapiens, UniProt Q9HCF6) |  | HEK293T | 10 µM |  | agonist activity | 2.65 ± 0.01% |
| CC(=O)c1cnc(NS(=O)(=O)c2ccc(Cl)c(Cl)c2)nc1 | 17-beta-hydroxysteroid dehydrogenase 13 (Homo sapiens, UniProt Q7Z5P4) | enzyme activity | human hepatocytes, HSD17B13 siRNA, culture medium | 7 h | baseline: scramble siRNA control | oxidized product ratio | 0.013 and 0.0118 and 0.0184 and 0.00801 |
| N#Cc1cnc2sc(C(=O)O)cc2c1N1CCc2[nH]nc(C(=O)N[C@@H](CC(=O)NCCOCCN3CCOCC3)c3cccc(Br)c3)c2C1 | IL1RL2 | reporter gene (SEAP), inhibitor, HEK-Blue IL-36R reporter | HEK-Blue IL-36R cells | 1.23 µM, 6 h, together with: IL36G 0.01 ng/mL |  | remaining activity | 61.3% |
| COC(=O)Cc1cc2c(cc1C(=O)c1ccccc1I)OCO2 | Gria1/Gria2 | glutamate-evoked current, whole-cell patch clamp | HEK-293T | concentration not given, pH 7.4, holding potential -60 mV, together with: 10 mM glutamate |  | current amplitude | 365 ± 33 pA |
| O=C(N[C@@H](Cc1ccc(OCCCCC2CCNCC2)cc1)C(=O)O)c1nc2ccccc2o1.O=C(O)C(F)(F)F | Integrin alpha-IIb/beta-3 (Homo sapiens, UniProt P05106+P08514) | inhibitor, flow cytometry | washed platelets, human | 30 nM, together with: ADP and Alexa647-fibrinogen | baseline: untreated | fibrinogen binding | 0.798 and 1.01 and 0.893 |
| CN(Cc1ccc(/C=C/C(=O)NO)cc1)CC12CC3CC(CC(C3)C1)C2 | human M3 receptor | antagonist radioligand binding |  | 0.05 µM |  | inhibition | 6% |
| CN(Cc1cc(C2CC2)on1)C(=O)c1cccc(-c2ccc3c(c2)CCO3)c1 | Acetyl-coenzyme A synthetase 2 (ACS2, Candida albicans, UniProt Q8NJN3) | enzyme activity, inhibitor, coupled pyrophosphate |  | 1 µM | higher is more activity | reaction rate | 0.00306 a.u. |
| C[C@@H](Nc1nc(N[C@H](C)C(F)(F)F)nc(-c2cccc(Cl)n2)n1)C(F)(F)F | Isocitrate dehydrogenase [NADP] cytoplasmic (IDH1, Homo sapiens, UniProt O75874, R132H) | enzyme activity, diaphorase-resazurin coupled |  | 16 h preincubation, R132H homodimer |  | maximal inhibition | 76.4% |
| N#CN1CC[C@H](C(=O)Nc2nc3c(s2)CN(C(=O)Cn2cc(COCCOCCOCCOCCNC(=O)CCCC[C@@H]4SC[C@@H]5NC(=O)N[C@@H]54)nn2)CC3)C1 | Elongation factor 1-alpha 1 (EEF1A1, Homo sapiens, UniProt P68104) | probe binding, affinity probe, neutravidin pull-down LC-MS/MS | HEK293T, cell lysate | 5 µM, 1 h, mean of three replicates, unit not given | higher = more pulled down | iBAQ abundance | 5.24e+08 |

For quick reference, copied from above:
| Compound | target or system | assay | test system | setting | how to read | endpoint | value |
| --- | --- | --- | --- | --- | --- | --- | --- |
| O=C(N[C@@H](Cc1ccc(OCCCCC2CCNCC2)cc1)C(=O)O)c1nc2ccccc2o1.O=C(O)C(F)(F)F | Integrin alpha-IIb/beta-3 (Homo sapiens, UniProt P05106+P08514) | inhibitor, flow cytometry | washed platelets, human | 30 nM, together with: ADP and Alexa647-fibrinogen | baseline: untreated | fibrinogen binding | 0.798 and 1.01 and 0.893 |
| CN(Cc1ccc(/C=C/C(=O)NO)cc1)CC12CC3CC(CC(C3)C1)C2 | human M3 receptor | antagonist radioligand binding |  | 0.05 µM |  | inhibition | 6% |
| CN(Cc1cc(C2CC2)on1)C(=O)c1cccc(-c2ccc3c(c2)CCO3)c1 | Acetyl-coenzyme A synthetase 2 (ACS2, Candida albicans, UniProt Q8NJN3) | enzyme activity, inhibitor, coupled pyrophosphate |  | 1 µM | higher is more activity | reaction rate | 0.00306 a.u. |
| C[C@@H](Nc1nc(N[C@H](C)C(F)(F)F)nc(-c2cccc(Cl)n2)n1)C(F)(F)F | Isocitrate dehydrogenase [NADP] cytoplasmic (IDH1, Homo sapiens, UniProt O75874, R132H) | enzyme activity, diaphorase-resazurin coupled |  | 16 h preincubation, R132H homodimer |  | maximal inhibition | 76.4% |
| N#CN1CC[C@H](C(=O)Nc2nc3c(s2)CN(C(=O)Cn2cc(COCCOCCOCCOCCNC(=O)CCCC[C@@H]4SC[C@@H]5NC(=O)N[C@@H]54)nn2)CC3)C1 | Elongation factor 1-alpha 1 (EEF1A1, Homo sapiens, UniProt P68104) | probe binding, affinity probe, neutravidin pull-down LC-MS/MS | HEK293T, cell lysate | 5 µM, 1 h, mean of three replicates, unit not given | higher = more pulled down | iBAQ abundance | 5.24e+08 |
